# Published values of several laboratories.
# pIC50: −log10 of the molar value.
# Cell line: K562
Structure (SMILES),assay,setting,how to read,quantity,result
C#CCSc1nc(Sc2nnnn2C)c2nnn(Cc3ccccc3)c2n1,"cell growth or viability, MTS",6 days,,pIC50,5.15
CC1CCC2C(C)C(OC(=O)CCC(=O)N(CCCc3cn(-c4ccc(C#N)cc4)nn3)CCNc3ccnc4cc(Cl)ccc34)OC3OC4(C)CCC1C32OO4 (stereo not drawn),"cell growth or viability, resazurin","10 µM, 48 h",,inhibition,82.8%
OC[C@H]1[C@@H](O)[C@@H](O)CN1Cc1ccccc1,"cell growth or viability, MTS",72 h,,pIC50,3.71
C[C@H]1[C@H](OC(=O)CCC(=O)O[C@H]2CO[C@H]3[C@@H]2OC[C@H]3O[N+](=O)[O-])O[C@@H]2O[C@@]3(C)CC[C@H]4[C@H](C)CC[C@@H]1[C@@]24OO3,"cell growth or viability, CCK-8",72 h,,pIC50,6.50
CC1=CCC23OC2(C)CCC2C(C[N+](C)(C)C)C(=O)OC2C13.[I-] (stereo not drawn),"cell growth or viability, SRB",8.3 µM,,inhibition,68.2%
C[C@H]1[C@H](OC(=O)CCC(=O)Oc2ccc(-c3cc(=S)ss3)cc2)O[C@@H]2O[C@@]3(C)CC[C@H]4[C@H](C)CC[C@@H]1[C@@]24OO3,"cell growth or viability, CCK-8",72 h,,pIC50,5.53
CC12CCC3(CCC(=O)NCCCNc4ccnc5cc(Cl)ccc45)C(C)(OOC3(C)O1)O2,"cell growth or viability, resazurin","10 µM, 48 h",,inhibition,22.3%
OC[C@H]1[C@@H](O)[C@@H](O)CN1Cc1ccc(I)cc1,"cell growth or viability, MTS",72 h,,pIC50,3.81
CC1CCC2C(C)C(OC(=O)CCC(=O)N(CCCc3cn(-c4ccc([N+](=O)[O-])cc4)nn3)CCNc3ccnc4cc(Cl)ccc34)OC3OC4(C)CCC1C32OO4 (stereo not drawn),"cell growth or viability, resazurin","10 µM, 48 h",,inhibition,81.2%
CCCCCCCCCCCCCC(=O)NCC(=O)N[C@@H](CCCNC(=N)N)C(=O)N[C@@H](Cc1c[nH]c2ccccc12)C(=O)N[C@@H](CCCCN)C(=O)N[C@H](C(=O)N[C@@H](Cc1ccccc1)C(=O)N[C@@H](CCCCN)C(=O)N[C@@H](CCCCN)C(=O)N[C@H](C(=O)N[C@@H](CCC(=O)O)C(=O)N[C@@H](CCCCN)C(=O)N[C@H](C(=O)NCC(=O)N[C@@H](CCC(N)=O)C(=O)N[C@@H](CC(N)=O)C(=O)N[C@H](C(=O)N[C@@H](CCCNC(=N)N)C(=O)N[C@@H](CC(=O)O)C(=O)NCC(=O)N[C@H](C(=O)N[C@H](C(=O)N[C@@H](CCCCN)C(=O)N[C@@H](C)C(=O)NCC(=O)N1CCC[C@H]1C(=O)N[C@@H](C)C(=O)N[C@H](C(=O)N[C@@H](C)C(=O)N[C@H](C(=O)N[C@H](C(=O)NCC(=O)N[C@@H](CCC(N)=O)C(=O)N[C@@H](C)C(=O)N[C@@H](C)C(=O)N[C@H](C(=O)N[C@H](C(N)=O)[C@@H](C)CC)[C@@H](C)O)C(C)C)C(C)C)C(C)C)C(C)C)[C@@H](C)CC)[C@@H](C)CC)C(C)C)[C@@H](C)CC)[C@@H](C)CC,MTT,"concentration not given, 24 h",reference: K562/MDR,cytotoxicity,no effect
CC/C=C\C/C=C\C/C=C\C/C=C\C/C=C\C/C=C\CCC(=O)Nc1ccn(C2OC(CO)C(O)C2(F)F)c(=O)n1 (stereo not drawn),NCI60 screen,,,CC50,> 100 µM
CC(C)C[C@H](NC(=O)[C@H](CO)NC(=O)[C@H](Cc1c[nH]c2ccccc12)NC(=O)[C@H](Cc1ccccc1)NC(=O)[C@H](Cc1ccccc1)NC(=O)[C@H](CCC(N)=O)NC(=O)[C@@H]1CCCN1C(=O)[C@H](CCCNC(=N)N)NC(=O)[C@H](CCCNC(=N)N)NC(=O)[C@H](CCCNC(=N)N)NC(=O)[C@H](CCC(N)=O)NC(=O)[C@H](CCCNC(=N)N)NC(=O)[C@H](CCCNC(=N)N)NC(=O)[C@H](CCCCN)NC(=O)[C@H](CCCCN)NC(=O)[C@H](CCCNC(=N)N)NC(=O)CNC(=O)[C@@H](N)Cc1ccc(O)cc1)C(=O)N[C@@H](CS)C(=O)N[C@H](C(=O)N[C@@H](C)C(=O)O)[C@@H](C)O,,"20 µM, 15 min",,trypan blue-negative cells,22.4%

# Some of these lines once more:
Structure (SMILES),assay,setting,how to read,quantity,result
CCCCCCCCCCCCCC(=O)NCC(=O)N[C@@H](CCCNC(=N)N)C(=O)N[C@@H](Cc1c[nH]c2ccccc12)C(=O)N[C@@H](CCCCN)C(=O)N[C@H](C(=O)N[C@@H](Cc1ccccc1)C(=O)N[C@@H](CCCCN)C(=O)N[C@@H](CCCCN)C(=O)N[C@H](C(=O)N[C@@H](CCC(=O)O)C(=O)N[C@@H](CCCCN)C(=O)N[C@H](C(=O)NCC(=O)N[C@@H](CCC(N)=O)C(=O)N[C@@H](CC(N)=O)C(=O)N[C@H](C(=O)N[C@@H](CCCNC(=N)N)C(=O)N[C@@H](CC(=O)O)C(=O)NCC(=O)N[C@H](C(=O)N[C@H](C(=O)N[C@@H](CCCCN)C(=O)N[C@@H](C)C(=O)NCC(=O)N1CCC[C@H]1C(=O)N[C@@H](C)C(=O)N[C@H](C(=O)N[C@@H](C)C(=O)N[C@H](C(=O)N[C@H](C(=O)NCC(=O)N[C@@H](CCC(N)=O)C(=O)N[C@@H](C)C(=O)N[C@@H](C)C(=O)N[C@H](C(=O)N[C@H](C(N)=O)[C@@H](C)CC)[C@@H](C)O)C(C)C)C(C)C)C(C)C)C(C)C)[C@@H](C)CC)[C@@H](C)CC)C(C)C)[C@@H](C)CC)[C@@H](C)CC,MTT,"concentration not given, 24 h",reference: K562/MDR,cytotoxicity,no effect
